Measured values of several laboratories.
Compare with care: the assays were run in different laboratories. ± marks the error that the study gave.
SLCO1B3 M233I/S112A: Solute carrier organic anion transporter family member 1B3 (SLCO1B3, Homo sapiens, UniProt Q9NPD5, M233I/S112A)
Chain of UniProt Q9NPD5 (whole entry, unmodified, looked up): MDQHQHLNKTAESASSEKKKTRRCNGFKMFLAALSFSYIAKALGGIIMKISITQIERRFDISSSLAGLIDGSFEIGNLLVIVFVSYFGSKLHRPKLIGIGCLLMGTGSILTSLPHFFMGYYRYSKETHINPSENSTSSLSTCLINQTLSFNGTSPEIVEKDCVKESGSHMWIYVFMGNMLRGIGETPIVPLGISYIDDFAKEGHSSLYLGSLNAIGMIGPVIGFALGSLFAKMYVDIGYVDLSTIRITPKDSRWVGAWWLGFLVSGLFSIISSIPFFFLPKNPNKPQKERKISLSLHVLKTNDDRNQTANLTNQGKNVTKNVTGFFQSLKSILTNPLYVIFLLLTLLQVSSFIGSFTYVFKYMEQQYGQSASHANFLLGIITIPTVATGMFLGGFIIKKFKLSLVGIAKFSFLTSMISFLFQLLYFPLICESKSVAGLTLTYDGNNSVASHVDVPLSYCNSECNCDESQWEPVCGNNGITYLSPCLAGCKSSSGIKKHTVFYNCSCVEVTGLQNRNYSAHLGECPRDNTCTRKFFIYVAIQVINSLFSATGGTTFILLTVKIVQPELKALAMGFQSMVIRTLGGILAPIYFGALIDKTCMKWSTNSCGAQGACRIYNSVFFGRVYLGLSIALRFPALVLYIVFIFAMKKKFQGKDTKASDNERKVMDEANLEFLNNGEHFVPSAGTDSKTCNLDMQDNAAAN
CYP2C9: Cytochrome P450 2C9 (CYP2C9, Homo sapiens, UniProt P11712)
Chain of UniProt P11712 (whole entry, looked up): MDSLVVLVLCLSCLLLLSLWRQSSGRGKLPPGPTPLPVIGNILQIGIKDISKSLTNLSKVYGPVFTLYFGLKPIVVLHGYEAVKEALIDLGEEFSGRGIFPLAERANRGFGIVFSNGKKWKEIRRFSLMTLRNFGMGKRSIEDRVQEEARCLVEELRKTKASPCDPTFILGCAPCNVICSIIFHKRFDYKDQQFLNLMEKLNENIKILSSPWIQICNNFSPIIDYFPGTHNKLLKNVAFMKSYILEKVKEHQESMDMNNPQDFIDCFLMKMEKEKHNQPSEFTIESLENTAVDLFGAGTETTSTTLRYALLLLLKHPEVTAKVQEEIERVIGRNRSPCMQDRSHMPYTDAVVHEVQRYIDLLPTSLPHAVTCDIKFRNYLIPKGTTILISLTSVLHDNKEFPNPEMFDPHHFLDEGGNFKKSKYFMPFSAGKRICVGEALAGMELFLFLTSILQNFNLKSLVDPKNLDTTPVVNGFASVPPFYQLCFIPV
Chain of UniProt Q12809 (whole entry, looked up): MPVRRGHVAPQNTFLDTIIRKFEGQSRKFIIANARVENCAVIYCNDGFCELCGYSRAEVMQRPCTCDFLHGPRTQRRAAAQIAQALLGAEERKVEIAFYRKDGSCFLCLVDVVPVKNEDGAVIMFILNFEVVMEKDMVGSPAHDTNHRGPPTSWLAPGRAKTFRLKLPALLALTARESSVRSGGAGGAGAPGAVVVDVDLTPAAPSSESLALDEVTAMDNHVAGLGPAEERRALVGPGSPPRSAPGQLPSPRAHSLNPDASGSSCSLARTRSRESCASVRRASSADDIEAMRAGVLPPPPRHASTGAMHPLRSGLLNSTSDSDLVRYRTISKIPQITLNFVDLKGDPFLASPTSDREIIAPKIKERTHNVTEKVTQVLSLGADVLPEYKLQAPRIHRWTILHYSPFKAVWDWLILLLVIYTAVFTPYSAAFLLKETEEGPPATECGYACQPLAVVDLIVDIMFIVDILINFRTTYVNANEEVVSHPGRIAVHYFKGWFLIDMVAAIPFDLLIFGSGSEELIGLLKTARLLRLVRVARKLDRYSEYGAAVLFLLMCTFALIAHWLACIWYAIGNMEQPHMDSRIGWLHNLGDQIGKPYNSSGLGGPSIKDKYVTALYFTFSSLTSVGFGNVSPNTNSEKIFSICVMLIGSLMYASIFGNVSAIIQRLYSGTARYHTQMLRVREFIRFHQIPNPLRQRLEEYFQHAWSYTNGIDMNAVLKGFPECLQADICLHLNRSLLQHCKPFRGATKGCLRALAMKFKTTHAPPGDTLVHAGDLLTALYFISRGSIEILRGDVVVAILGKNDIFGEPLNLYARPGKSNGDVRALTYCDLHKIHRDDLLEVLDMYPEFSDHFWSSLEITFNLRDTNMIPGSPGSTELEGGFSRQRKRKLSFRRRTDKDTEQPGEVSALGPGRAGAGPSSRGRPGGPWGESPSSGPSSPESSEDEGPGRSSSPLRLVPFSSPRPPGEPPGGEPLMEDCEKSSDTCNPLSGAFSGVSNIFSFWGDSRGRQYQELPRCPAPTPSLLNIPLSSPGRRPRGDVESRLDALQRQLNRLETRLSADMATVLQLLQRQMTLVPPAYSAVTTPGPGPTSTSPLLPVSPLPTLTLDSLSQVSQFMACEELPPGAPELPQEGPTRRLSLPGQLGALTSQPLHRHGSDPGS
Chain of UniProt P08684 (whole entry, looked up): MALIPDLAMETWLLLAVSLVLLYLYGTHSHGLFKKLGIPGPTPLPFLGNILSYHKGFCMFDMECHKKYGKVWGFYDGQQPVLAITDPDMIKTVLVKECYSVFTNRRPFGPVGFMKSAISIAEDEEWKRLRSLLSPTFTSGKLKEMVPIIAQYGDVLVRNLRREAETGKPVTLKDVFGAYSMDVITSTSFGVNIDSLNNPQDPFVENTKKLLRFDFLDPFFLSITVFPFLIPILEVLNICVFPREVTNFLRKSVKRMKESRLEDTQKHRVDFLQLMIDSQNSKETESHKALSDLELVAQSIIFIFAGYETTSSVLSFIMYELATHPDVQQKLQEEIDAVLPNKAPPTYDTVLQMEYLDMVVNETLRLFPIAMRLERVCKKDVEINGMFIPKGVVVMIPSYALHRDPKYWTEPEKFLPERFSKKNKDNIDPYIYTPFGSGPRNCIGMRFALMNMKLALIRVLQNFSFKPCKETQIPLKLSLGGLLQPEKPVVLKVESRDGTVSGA

`COC(=O)c1cccc(-c2cccc(Nc3nccc(NC4CCCCC4)n3)c2)c1` has a Papp (B-A) of 0.076 ± 0.054 ×10⁻⁶ cm/s (P-glycoprotein (human MDR1); MDR1-MDCKII; 10 µM, 1 h, pH 7.4).
For `CC[C@H](C)CCCCC(=O)N[C@@H](CCN)C(=O)N[C@H](C(=O)N[C@@H](CCN)C(=O)N[C@H]1CCNC(=O)[C@H]([C@@H](C)O)NC(=O)[C@H](CCN)NC(=O)[C@H](CCN)NC(=O)[C@H](CC(C)C)NC(=O)[C@@H](Cc2ccccc2)NC(=O)[C@H](CCN)NC1=O)[C@@H](C)O`, the fu was 0.047 (plasma proteins; equilibrium dialysis; human, normal renal function, plasma; intravenous, 0.75 mg/kg, 4 h, 37 °C).
With `CNC(=O)c1cc(Oc2ccc(NC(=O)Nc3ccc(Cl)c(C(F)(F)F)c3)cc2)ccn1` the Km was 15.6 µM (SLCO1B3 M233I/S112A; substrate, uptake; HEK293-A stably expressing SLCO1B3; 2 min).
For `c1ccc(-c2cccc(Nc3nccc(NC4CCCCC4)n3)c2)cc1`, the Papp (B-A) was 0.028 ± 0.021 ×10⁻⁶ cm/s (P-glycoprotein (human MDR1); MDR1-MDCKII; 10 µM, 1 h, pH 7.4).
`CC(C)n1c(/C=C/C(O)CC(O)CC(=O)O)c(-c2ccc(F)cc2)c2ccccc21` (stereo not shown) gave a Km of 4.14 µM (SLCO1B3 M233I/S112A; substrate, uptake; HEK293-A stably expressing SLCO1B3; 2 min).
`Cc1oc2ccccc2c1Cc1cc(I)c(OCC(=O)O)c(I)c1` gave an inhibition of 23% (KCNH2 (Homo sapiens, UniProt Q12809); potassium current, inhibitor, patch clamp; SH-SY5Y (endogenous); 10 µM, at +50 mV).
The efflux ratio of `CC(C)Nc1ccnc(Nc2cccc(-c3ccccc3)c2)n1` is reported as 1.43 (P-glycoprotein (human MDR1); MDR1-MDCKII; 10 µM, 1 h, pH 7.4; baseline: B-A over A-B).
`CCc1cc(/C(C)=N/OCc2ccc(C3CCCCC3)c(C(F)(F)F)c2)ccc1CN1CC(C(=O)O)C1` has a CYP2C9-mediated clearance of 1.07 L/h (CYP2C9; population PK; human, CYP2C9*2/*3, plasma).
`CC[C@H]1[C@@H](O)[C@@H]2[C@H](CC[C@]3(C)[C@@H]([C@H](C)CCNC(=O)NS(=O)(=O)c4ccc(C(C)(C)C)cc4)CC[C@@H]23)[C@@]2(C)CC[C@@H](O)C[C@@H]12` has an AUC(0-inf) mean of 394 ng·h/mL (Cytochrome P450 3A4 (CYP3A4, Homo sapiens, UniProt P08684); substrate; human, plasma; 10 mg, alone, study day 1).
The half-life of `N#C[C@H](C[C@@H]1CCCNC1=O)NC(=O)[C@H](CC1CC1)NC(=O)c1cc2cccc(Cl)c2[nH]1` is reported as 1.85 h (CYP2C9; NADPH metabolic stability; 2 µM, pH 7.4, 37 °C, 100 pmol/mL enzyme).

For quick reference, copied from above:
For `c1ccc(-c2cccc(Nc3nccc(NC4CCCCC4)n3)c2)cc1`, the Papp (B-A) was 0.028 ± 0.021 ×10⁻⁶ cm/s (P-glycoprotein (human MDR1); MDR1-MDCKII; 10 µM, 1 h, pH 7.4).
